Assay results of several laboratories.
Numbered parts are unrelated; each lists some results of a single study.
Sequence of UniProt P10721 (whole entry, looked up): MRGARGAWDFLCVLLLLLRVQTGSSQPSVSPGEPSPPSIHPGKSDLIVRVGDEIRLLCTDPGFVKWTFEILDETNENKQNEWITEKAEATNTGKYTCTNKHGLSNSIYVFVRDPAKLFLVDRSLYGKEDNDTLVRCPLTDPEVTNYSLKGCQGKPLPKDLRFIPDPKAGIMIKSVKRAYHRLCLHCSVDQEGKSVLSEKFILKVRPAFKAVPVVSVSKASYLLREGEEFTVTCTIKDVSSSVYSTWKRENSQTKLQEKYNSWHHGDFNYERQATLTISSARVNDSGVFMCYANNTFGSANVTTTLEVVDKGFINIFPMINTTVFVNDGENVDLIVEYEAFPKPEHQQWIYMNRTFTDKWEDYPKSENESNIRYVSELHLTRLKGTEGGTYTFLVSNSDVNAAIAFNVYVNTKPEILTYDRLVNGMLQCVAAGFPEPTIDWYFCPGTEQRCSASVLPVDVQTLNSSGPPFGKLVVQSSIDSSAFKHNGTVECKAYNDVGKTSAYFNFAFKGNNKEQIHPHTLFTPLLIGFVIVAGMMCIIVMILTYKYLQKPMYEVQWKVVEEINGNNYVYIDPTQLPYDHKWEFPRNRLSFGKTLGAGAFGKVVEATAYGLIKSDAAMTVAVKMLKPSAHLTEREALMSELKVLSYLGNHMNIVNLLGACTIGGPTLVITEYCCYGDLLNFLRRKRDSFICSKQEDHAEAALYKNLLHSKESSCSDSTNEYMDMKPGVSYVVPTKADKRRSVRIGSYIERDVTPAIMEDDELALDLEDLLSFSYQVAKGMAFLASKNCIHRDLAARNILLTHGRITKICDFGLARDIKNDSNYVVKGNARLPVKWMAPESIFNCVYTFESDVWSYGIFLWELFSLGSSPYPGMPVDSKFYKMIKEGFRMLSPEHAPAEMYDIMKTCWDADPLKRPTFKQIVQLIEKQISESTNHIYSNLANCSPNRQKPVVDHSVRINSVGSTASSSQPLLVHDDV
Sequence of UniProt Q9UM73 (whole entry, unmodified, looked up): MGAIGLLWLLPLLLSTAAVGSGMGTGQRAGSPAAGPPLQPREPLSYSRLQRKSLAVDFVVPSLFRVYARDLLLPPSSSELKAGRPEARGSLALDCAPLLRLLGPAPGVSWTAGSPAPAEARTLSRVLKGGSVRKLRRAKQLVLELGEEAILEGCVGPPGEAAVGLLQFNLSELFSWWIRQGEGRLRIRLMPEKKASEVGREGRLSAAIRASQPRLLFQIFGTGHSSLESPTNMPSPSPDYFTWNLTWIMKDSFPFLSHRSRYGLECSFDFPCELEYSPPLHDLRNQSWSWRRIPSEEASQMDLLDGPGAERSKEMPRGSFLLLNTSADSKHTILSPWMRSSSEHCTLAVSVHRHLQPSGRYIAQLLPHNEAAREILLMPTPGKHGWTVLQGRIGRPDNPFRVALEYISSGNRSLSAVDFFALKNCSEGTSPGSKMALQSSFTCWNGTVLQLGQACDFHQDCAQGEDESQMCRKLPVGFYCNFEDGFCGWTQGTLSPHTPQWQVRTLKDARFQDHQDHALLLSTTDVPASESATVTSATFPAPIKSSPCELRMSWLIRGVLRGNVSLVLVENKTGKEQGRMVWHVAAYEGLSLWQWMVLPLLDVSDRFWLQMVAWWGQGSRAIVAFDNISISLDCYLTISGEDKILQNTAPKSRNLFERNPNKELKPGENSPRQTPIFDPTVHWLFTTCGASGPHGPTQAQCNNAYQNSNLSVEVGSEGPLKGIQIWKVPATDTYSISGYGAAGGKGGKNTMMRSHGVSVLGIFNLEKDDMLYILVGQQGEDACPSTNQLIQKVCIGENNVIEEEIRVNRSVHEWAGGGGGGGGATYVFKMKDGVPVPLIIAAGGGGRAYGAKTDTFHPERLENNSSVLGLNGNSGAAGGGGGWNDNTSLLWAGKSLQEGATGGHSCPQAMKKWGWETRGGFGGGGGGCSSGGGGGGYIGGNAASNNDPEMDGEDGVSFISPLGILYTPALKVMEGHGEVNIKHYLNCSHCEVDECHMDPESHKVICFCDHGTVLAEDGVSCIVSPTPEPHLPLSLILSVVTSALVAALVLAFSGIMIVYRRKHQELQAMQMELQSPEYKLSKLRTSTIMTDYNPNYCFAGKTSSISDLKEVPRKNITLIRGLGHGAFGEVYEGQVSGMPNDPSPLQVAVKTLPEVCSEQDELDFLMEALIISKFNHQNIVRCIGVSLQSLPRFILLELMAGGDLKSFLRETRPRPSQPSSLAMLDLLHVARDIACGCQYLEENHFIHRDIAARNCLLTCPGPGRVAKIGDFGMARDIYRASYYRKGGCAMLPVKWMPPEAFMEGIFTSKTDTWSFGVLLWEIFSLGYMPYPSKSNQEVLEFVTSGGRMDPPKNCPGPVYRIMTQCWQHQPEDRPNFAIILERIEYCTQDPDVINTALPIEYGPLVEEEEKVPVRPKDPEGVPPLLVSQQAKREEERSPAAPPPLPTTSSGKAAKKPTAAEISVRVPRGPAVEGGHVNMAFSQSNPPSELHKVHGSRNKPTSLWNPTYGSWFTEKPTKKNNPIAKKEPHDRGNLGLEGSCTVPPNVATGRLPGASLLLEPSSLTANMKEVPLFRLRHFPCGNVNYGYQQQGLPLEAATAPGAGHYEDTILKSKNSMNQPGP
Sequence of UniProt O14976 (whole entry, looked up): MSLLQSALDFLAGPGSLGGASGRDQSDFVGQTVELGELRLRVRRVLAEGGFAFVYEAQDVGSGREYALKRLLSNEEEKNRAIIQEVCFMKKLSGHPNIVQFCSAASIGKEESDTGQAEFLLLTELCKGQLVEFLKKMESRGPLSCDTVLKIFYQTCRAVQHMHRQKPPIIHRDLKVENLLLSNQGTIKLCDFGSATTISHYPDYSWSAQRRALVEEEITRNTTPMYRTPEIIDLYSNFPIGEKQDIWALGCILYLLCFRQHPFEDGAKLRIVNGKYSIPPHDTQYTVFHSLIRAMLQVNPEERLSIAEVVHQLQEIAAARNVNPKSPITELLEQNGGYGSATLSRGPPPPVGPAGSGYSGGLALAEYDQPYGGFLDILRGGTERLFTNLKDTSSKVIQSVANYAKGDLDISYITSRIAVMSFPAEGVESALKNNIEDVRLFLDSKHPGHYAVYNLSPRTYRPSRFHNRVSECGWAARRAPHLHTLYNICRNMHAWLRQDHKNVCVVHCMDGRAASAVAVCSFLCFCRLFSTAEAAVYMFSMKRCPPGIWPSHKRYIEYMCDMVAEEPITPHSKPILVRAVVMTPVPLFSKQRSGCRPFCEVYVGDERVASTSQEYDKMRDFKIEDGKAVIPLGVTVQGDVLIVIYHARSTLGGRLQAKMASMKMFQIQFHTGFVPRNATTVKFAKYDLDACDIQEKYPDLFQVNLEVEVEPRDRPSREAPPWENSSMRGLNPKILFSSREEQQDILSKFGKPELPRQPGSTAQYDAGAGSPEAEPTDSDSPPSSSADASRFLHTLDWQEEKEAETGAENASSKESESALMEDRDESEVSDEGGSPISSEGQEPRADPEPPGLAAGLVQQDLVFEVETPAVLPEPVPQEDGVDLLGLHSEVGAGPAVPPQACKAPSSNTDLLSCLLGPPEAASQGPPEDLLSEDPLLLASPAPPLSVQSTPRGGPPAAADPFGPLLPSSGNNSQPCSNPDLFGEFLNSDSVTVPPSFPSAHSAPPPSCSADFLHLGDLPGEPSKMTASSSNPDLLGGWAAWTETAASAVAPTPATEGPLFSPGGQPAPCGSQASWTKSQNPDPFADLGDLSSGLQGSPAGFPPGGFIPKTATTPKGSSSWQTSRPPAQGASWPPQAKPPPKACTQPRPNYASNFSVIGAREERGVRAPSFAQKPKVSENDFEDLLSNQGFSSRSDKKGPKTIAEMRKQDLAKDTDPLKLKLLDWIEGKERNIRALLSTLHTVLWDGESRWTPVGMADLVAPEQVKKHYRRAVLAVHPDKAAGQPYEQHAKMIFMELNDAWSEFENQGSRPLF

Series 1
Target: Centromere-binding protein 1, full length, N-terminal tag (CBF1, Saccharomyces cerevisiae, UniProt P17106, residues 1-351)
Sequence of UniProt P17106 (whole entry, looked up): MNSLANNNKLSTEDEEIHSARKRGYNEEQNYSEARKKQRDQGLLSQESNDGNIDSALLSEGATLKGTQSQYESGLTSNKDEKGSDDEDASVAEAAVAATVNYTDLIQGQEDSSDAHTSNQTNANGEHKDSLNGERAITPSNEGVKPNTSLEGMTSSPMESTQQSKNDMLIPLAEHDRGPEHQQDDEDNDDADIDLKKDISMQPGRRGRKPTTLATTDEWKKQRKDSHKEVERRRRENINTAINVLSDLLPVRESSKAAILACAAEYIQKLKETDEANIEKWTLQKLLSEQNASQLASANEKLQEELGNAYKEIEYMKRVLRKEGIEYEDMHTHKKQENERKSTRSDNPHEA
Method: protein-binding microarray
Molecule type: double-stranded DNA, one strand shown
Sample: in vitro
Tested at: 0.8 µM
Setting: whole 60-bp probe, no competitor
Direction: higher = stronger binding
Constant ends, left off below: … GTCTTGATTCGCTTGACGCTGCTG
Oligonucleotide | fluorescence intensity [a.u.]
CTACGGAAATCATGACATGTGCTATGGCCTGTGTTC | 872
CTAGGGGACTGACATCAGGTCAACATTATTATTTTC | 511
CCTAACTACTATACTGGTGGGCTATAGCTTCGTACA | 475
CTACTGAATCCGATTCTGATGATGAAGAGGAAGTTC | 514
CTATAAAACCCCCACCACACCATAATAAGACGATTC | 486
GAAAGATCAACGAAGCACGCGATGAAATTCTGCTAG | 683
CTAACCTTTCCTTATTGTGTGACCACAGCCGAATTC | 551
CTAAGAGGTTATAGTCACGTGATGCAGATTACCTTC | 43100

Series 2
SMILES: CC(=O)C1=C(C)N(c2cccc(C(F)(F)F)c2)C(=O)N[C@@H]1c1ccc(C#N)nc1
Read-out: cell-free assay
Method: competition with immobilised ligand
Tested at: 1 µM
target | remaining binding [%]
GAK (Homo sapiens, UniProt O14976) | 97.2
ALK (Homo sapiens, UniProt Q9UM73, L1196M) | 94.1
HIPK4 (Homo sapiens, UniProt Q8NE63) | 100
Mast/stem cell growth factor receptor Kit, autoinhibited (KIT, Homo sapiens, UniProt P10721) | 83.8

Series 3
Target: Interferon regulatory factor 3, full length, phosphomimetic (IRF3, Homo sapiens, UniProt Q14653, residues 1-427, S386D/S396D/S398D/S402D/T404D/S405D)
Method: protein-binding microarray
Molecule type: double-stranded DNA, one strand shown
Sample: in vitro
Tested at: 2540 nM top
Setting: 60-bp whole probe
Together with: salmon DNA 0.4 mg/ml
Reference: random background probes
Direction: higher = stronger binding
Constant ends, left off below: GCCTAGCAC … GTCTTGATTCGCTTGACGCTGCTG
Target sequence (chain): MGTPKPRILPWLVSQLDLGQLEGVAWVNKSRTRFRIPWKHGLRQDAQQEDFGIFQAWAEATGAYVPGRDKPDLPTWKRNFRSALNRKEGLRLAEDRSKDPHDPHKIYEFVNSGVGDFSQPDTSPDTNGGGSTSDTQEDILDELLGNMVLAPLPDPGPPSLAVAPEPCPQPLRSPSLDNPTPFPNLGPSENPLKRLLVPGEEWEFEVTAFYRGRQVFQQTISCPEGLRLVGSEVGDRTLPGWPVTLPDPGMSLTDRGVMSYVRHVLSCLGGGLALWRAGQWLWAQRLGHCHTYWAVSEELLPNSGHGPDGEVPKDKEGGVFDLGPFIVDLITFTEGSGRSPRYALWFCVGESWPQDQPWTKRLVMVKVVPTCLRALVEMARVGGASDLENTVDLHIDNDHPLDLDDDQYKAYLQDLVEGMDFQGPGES
Oligonucleotide | fitted relative affinity [z-score]
CAGGCAGGAGAAGTGAATGAGTGCTAG | -0.702
TTAGATTTCAGTTCCGATTTGTGCTAG | 4.18
TTAGGTATCGGTACTGGGTTAGTGCTA | 3.32
GACGATTTCAGGCTGGAGACGTGCTAG | 0.528
GACGGTATCGGGTATTGGGACGTGCTA | 1.43
TTTTACATTTTAAGAAATGTGTGCTAG | 2.5
GACGGACTGGGGACTGGTGACGTGCTA | -1.01
GCTCCTTCCCCTCTAGGTCTGTGCTAG | 1.13

Series 4
Target: Dual specificity protein kinase CLK3 (CLK3, Homo sapiens, UniProt P49761)
Sequence of UniProt P49761 (whole entry, looked up): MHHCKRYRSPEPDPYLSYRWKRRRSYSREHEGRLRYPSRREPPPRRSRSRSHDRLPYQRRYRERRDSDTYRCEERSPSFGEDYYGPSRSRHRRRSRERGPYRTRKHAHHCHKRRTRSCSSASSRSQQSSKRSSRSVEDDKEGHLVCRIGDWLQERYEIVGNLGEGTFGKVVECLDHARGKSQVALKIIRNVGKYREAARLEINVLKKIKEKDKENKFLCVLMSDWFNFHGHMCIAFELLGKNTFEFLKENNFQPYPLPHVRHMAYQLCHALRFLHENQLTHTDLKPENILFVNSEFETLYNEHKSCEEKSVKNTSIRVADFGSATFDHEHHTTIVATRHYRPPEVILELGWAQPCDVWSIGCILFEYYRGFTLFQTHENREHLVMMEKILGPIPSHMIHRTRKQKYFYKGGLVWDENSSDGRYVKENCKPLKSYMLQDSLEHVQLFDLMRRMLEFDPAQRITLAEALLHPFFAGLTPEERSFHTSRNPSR
Read-out: enzyme activity
Mode: inhibitor
Tested at: 0.5 µM
Reference: control
Structure (SMILES) | remaining activity [%]
O=c1c2ccccc2[nH]c(=S)n1CCN1CCC(=C(c2ccc(F)cc2)c2ccc(F)cc2)CC1 | 101
Nc1[nH]nc2nc3ccccc3nc12 | 94.3
NCCNc1ncc(C(N)=O)c(Nc2cccc(C(F)(F)F)c2)n1 | 107
CC(C)[C@H](CO)Nc1nc(Nc2cc(N)cc(Cl)c2)c2ncn(C(C)C)c2n1 | 85.5
COc1ccc(OC)c2c(=S)c3ccccc3[nH]c12 | 96.3
COc1ccc(C(=O)Nc2sc3c(c2C(N)=O)CCCC3)cc1OC | 63
O=C(CCCc1ccc(-c2ccccc2F)cc1)Nc1ccc(O)cc1 | 124
COc1cc2ncnc(Nc3ccc(Oc4ccccc4)cc3)c2cc1OC | 101
CN(C)c1ccc(C=C2C(=O)Nc3ccccc32)cc1 | 89.4
Cc1ccc(NC(=O)c2ccc(CN3CCN(C)CC3)cc2)cc1Nc1nc(-c2cccnc2)cs1 | 93.6
COc1cc2ncnc(Nc3ccc(F)c(Cl)c3)c2cc1OCCCN1CCOCC1 | 106
Cc1nc(-c2ccccc2)c(-c2ccncc2)o1 | 90.6
Cc1ccc(Nc2nccc(N(C)c3ccc4c(C)n(C)nc4c3)n2)cc1S(N)(=O)=O | 107
N#CC(C#N)=C(N)/C(C#N)=C/c1ccc(O)cc1 | 100

A few entries again (series 4):
Structure (SMILES) | remaining activity [%]
COc1cc2ncnc(Nc3ccc(Oc4ccccc4)cc3)c2cc1OC | 101
CN(C)c1ccc(C=C2C(=O)Nc3ccccc32)cc1 | 89.4
Cc1ccc(NC(=O)c2ccc(CN3CCN(C)CC3)cc2)cc1Nc1nc(-c2cccnc2)cs1 | 93.6
COc1cc2ncnc(Nc3ccc(F)c(Cl)c3)c2cc1OCCCN1CCOCC1 | 106
Cc1nc(-c2ccccc2)c(-c2ccncc2)o1 | 90.6
